Measurements gathered from unrelated publications.
Every numbered part comes from another study and shows a few of its results, in no order. pIC50: −log10 of the molar value.
UniProt Q5XXA6, sequence (whole entry, unmodified, looked up): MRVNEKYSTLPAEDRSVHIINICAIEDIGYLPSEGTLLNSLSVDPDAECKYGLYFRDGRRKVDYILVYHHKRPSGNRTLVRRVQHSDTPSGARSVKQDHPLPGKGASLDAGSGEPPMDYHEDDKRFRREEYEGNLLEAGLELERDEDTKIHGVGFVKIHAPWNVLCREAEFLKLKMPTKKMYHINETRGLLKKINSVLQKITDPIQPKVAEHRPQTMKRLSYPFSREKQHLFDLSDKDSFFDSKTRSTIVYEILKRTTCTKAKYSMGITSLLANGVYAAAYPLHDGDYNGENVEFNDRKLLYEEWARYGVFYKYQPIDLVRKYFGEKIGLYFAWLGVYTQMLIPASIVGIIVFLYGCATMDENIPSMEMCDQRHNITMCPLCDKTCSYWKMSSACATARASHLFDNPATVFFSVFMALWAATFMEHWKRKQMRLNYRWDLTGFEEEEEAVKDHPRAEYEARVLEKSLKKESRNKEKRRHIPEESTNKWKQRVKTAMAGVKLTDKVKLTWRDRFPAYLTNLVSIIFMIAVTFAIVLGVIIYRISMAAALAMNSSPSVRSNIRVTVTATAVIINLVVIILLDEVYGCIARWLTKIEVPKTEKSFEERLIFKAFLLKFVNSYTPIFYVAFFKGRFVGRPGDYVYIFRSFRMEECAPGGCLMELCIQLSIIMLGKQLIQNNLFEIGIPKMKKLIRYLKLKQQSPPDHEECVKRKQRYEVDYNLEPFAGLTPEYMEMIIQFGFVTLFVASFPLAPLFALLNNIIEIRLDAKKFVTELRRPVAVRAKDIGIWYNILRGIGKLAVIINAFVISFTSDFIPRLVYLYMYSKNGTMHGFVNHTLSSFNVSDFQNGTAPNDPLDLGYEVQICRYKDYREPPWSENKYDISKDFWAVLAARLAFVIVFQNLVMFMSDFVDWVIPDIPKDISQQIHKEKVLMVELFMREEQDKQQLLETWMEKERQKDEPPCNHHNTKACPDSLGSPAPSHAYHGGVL
UniProt P21802, sequence (whole entry, looked up): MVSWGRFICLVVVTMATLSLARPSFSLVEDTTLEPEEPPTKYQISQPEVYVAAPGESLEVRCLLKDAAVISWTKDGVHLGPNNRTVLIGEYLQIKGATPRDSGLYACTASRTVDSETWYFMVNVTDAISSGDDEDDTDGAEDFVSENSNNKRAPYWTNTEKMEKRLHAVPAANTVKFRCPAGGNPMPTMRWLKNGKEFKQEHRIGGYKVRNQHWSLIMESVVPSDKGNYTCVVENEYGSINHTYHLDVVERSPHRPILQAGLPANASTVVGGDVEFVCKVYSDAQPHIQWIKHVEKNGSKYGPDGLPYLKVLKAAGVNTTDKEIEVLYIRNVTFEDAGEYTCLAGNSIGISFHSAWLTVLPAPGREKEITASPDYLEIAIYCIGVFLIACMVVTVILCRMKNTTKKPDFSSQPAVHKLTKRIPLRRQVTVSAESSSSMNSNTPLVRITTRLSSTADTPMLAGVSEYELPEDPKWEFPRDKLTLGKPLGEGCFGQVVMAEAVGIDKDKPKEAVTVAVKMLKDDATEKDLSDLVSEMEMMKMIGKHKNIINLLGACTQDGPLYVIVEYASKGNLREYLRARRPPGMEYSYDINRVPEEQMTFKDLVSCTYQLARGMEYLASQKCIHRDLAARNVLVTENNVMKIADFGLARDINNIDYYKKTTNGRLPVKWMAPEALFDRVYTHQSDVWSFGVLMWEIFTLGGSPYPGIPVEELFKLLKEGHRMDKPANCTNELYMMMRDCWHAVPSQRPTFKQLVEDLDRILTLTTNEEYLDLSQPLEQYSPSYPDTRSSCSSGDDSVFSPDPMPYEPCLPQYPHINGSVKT
UniProt P37023, sequence (whole entry, looked up): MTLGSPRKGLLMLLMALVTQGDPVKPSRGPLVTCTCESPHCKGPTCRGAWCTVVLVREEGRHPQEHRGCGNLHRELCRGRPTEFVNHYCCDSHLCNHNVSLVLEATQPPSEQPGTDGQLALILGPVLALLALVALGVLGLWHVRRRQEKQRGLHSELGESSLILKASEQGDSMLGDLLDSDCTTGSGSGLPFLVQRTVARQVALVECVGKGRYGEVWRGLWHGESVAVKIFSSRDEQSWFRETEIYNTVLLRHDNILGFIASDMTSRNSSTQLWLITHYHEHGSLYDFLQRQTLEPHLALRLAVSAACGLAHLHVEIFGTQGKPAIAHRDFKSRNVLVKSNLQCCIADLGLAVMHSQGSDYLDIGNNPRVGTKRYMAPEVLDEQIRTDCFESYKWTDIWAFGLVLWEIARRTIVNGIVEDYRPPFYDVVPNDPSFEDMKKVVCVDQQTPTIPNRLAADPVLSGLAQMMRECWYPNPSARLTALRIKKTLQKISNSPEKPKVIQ
UniProt P45985, sequence (whole entry, looked up): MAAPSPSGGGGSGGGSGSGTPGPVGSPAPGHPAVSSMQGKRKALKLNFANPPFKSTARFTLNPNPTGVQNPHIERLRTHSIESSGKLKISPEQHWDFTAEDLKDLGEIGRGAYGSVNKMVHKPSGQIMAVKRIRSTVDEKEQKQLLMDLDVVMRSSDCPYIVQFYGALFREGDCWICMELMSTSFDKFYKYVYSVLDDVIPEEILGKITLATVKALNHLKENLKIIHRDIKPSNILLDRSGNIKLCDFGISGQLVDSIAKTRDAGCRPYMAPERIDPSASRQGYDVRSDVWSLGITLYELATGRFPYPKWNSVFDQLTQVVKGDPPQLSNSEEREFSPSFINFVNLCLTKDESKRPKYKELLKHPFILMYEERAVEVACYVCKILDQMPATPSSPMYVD
UniProt Q05655, sequence (whole entry, looked up): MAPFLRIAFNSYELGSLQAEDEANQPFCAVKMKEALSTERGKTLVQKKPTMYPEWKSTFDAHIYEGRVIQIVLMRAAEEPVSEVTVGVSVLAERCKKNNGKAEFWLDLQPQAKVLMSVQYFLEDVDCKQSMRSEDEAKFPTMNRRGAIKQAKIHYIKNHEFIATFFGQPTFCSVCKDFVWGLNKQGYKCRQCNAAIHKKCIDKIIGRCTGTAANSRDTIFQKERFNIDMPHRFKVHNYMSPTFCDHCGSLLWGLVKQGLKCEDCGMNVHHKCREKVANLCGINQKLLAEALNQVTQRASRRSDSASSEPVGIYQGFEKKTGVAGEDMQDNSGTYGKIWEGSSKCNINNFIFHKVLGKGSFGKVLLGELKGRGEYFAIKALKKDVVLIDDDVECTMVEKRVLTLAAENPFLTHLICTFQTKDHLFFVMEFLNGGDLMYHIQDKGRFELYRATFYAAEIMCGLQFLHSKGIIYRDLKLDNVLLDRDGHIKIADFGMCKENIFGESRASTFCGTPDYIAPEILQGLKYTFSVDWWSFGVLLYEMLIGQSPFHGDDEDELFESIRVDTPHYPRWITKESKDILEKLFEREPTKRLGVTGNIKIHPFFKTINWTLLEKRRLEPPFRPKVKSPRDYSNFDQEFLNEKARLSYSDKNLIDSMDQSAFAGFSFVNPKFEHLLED
UniProt P42336, sequence (whole entry, unmodified, looked up): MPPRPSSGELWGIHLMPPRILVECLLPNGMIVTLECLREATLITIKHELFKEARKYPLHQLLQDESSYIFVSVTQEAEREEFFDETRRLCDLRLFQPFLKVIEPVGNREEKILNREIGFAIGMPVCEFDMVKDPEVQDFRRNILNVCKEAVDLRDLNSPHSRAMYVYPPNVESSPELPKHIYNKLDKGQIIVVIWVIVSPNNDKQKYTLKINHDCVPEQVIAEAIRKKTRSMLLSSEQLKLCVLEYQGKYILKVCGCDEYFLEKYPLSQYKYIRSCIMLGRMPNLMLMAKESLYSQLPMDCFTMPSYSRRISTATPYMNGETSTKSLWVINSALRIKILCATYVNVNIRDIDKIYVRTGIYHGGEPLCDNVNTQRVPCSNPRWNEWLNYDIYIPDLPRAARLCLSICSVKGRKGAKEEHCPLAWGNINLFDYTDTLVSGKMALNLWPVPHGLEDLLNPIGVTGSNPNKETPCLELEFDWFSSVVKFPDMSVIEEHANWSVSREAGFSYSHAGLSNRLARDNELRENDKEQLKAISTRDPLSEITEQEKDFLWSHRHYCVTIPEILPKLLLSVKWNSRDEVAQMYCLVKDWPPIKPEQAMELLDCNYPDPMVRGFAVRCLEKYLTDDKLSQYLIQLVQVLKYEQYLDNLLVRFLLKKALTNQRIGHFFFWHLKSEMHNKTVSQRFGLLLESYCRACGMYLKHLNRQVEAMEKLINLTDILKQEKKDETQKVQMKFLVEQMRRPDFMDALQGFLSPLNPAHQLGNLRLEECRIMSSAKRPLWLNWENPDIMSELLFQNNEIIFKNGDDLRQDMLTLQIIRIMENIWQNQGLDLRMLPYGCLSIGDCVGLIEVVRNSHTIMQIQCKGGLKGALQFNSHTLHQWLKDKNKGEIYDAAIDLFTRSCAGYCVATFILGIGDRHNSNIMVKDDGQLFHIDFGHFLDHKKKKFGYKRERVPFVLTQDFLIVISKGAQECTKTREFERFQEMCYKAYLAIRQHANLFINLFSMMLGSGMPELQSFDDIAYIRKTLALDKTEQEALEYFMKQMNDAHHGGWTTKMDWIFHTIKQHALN
UniProt P51451, sequence (whole entry, looked up): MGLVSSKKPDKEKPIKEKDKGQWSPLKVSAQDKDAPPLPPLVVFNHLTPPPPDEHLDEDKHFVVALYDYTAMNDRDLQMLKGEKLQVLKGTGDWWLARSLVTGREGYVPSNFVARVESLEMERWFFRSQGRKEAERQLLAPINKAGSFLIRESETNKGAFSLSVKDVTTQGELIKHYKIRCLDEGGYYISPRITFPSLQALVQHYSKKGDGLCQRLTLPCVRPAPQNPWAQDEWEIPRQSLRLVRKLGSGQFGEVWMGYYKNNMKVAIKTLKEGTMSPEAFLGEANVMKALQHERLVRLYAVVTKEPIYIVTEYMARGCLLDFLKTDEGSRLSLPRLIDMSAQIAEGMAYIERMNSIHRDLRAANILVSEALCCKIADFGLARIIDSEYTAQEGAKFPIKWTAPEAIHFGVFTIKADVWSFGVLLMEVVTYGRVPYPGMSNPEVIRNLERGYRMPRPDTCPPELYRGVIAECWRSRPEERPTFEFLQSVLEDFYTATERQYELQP

Set 1
Target: panel of 300 human kinases
Tested at: 0.5 µM
Direction: higher = more selective
| SMILES | Gini score |
| --- | --- |
| Cn1cnc2cc3c(Nc4cccc(Br)c4)ncnc3cc21 | 0.67 |
| O=[N+]([O-])c1ccc(-c2nc(-c3ccncc3)c(-c3ccc(F)cc3)[nH]2)cc1 | 0.66 |
| CO[C@H]1[C@@H](OC)C[C@H](C)[C@@H](OC)C2=CC(=O)C=C(NC(=O)/C(C)=C/C=C\[C@H](OC)[C@@H](OC(N)=O)/C(C)=C/[C@@H]1C)C2=O | 0.64 |
| CC(C)c1nn(-c2c(Cl)cccc2Cl)c2nc(Cc3ccc(OCCO)cc3)[nH]c(=O)c12 | 0.72 |
| Cc1cc(Nc2cc(N3CCN(C)CC3)nc(Sc3ccc(NC(=O)C4CC4)cc3)n2)[nH]n1 | 0.68 |
| Oc1cccc(-c2nc(N3CCOCC3)c3oc4ncccc4c3n2)c1 | 0.57 |

Set 2
SMILES: CCS(=O)(=O)c1cc2cc(C[C@@](O)(CC(C)(C)c3ccc(F)cc3C(N)=O)C(F)(F)F)[nH]c2cn1
Tested at: 1 µM
| target | test | remaining binding [%] |
| --- | --- | --- |
| Tyrosine-protein kinase ABL1, phosphorylated (ABL1, Homo sapiens, UniProt P00519, F317I) | binding | 100 |
| ACVRL1 (Homo sapiens, UniProt P37023) | cell-free assay, competition with immobilised ligand | 100 |
| FGFR3 (Homo sapiens, UniProt P22607) | cell-free assay, competition with immobilised ligand | 80 |
| MAP2K4 (Homo sapiens, UniProt P45985) | cell-free assay, competition with immobilised ligand | 100 |
| FGFR2 (Homo sapiens, UniProt P21802) | cell-free assay, competition with immobilised ligand | 95 |
| PRKCD (Homo sapiens, UniProt Q05655) | cell-free assay, competition with immobilised ligand | 99 |
| FLT4 (Homo sapiens, UniProt P35916) | cell-free assay, competition with immobilised ligand | 90 |
| BLK (Homo sapiens, UniProt P51451) | cell-free assay, competition with immobilised ligand | 100 |
| PIK3CA (Homo sapiens, UniProt P42336, E542K) | cell-free assay, competition with immobilised ligand | 74 |
| Tyrosine-protein kinase ABL1, phosphorylated (ABL1, Homo sapiens, UniProt P00519, T315I) | cell-free assay, competition with immobilised ligand | 74 |
| ROS1 (Homo sapiens, UniProt P08922) | cell-free assay, competition with immobilised ligand | 90 |
| ACVR1 (Homo sapiens, UniProt Q04771) | cell-free assay, competition with immobilised ligand | 100 |
| SIK3 (Homo sapiens, UniProt Q9Y2K2) | cell-free assay, competition with immobilised ligand | 81 |
| Ribosomal protein S6 kinase alpha-4, C-terminal kinase domain (RPS6KA4, Homo sapiens, UniProt O75676) | cell-free assay, competition with immobilised ligand | 71 |

Set 3
SMILES: C=CCc1ccc(O)c(-c2ccc(O)c(CC=C)c2)c1
Observed: chloride current
Method: whole-cell voltage clamp
| target | test | setting | pIC50 |
| --- | --- | --- | --- |
| Anoctamin-1 (ANO1, Homo sapiens, UniProt Q5XXA6, del476-501/R631K) | inhibitor | R605K mutant at 20 mV | 5.15 |
| Anoctamin-1 (ANO1, Homo sapiens, UniProt Q5XXA6, del476-501/R631D) | inhibitor | R605D mutant at 80 mV | 4.59 |
| Anoctamin-1 (ANO1, Homo sapiens, UniProt Q5XXA6, del476-501/F623A) |  | membrane voltage -60 mV | 4.82 |
| Anoctamin-1 (ANO1, Homo sapiens, UniProt Q5XXA6, del476-501/F803I) | inhibitor | 40 mV holding voltage | 5.17 |
| Anoctamin-1 (ANO1, Homo sapiens, UniProt Q5XXA6, del476-501/R631I) | inhibitor | R605I mutant at -60 mV | 4.62 |

Set 4
Host: mouse
Medium: microsomes or S9
Tested at: 2 µM
Time: 0.5 h
| Structure (SMILES) | remaining compound [%] |
| --- | --- |
| CC(C)Cn1c(NCCc2ccccc2)nc2c1c(O)nc(=O)n2C | 8.53 |
| Cn1c(=O)c2c(-c3ccncc3)c(Nc3ccccc3)oc2c2ccccc21 | 55.8 |
| O=C(O)c1cc(-c2ccccc2)nn1-c1ncccc1-c1ccccc1 | 91 |
| O=C(C1CCCC1)N1CCc2nc3cc(C4CCCN(C(=O)C5CCCC5)C4)nn3c(O)c2C1 (centres unmarked) | 6.46 |
| CCCc1nnsc1C(=O)NC1CC(=O)N(C2CC2)C1 (centres unmarked) | 48.7 |
| COc1ccc2nc(O)c(-c3c4oc5cc(O)ccc5c4nc4c3c(=O)[nH]n4C3CCCCCCC3)cc2c1 | 64.3 |
| Cc1ccc(S(=O)(=O)N2OC(c3ccc(Cl)cc3)(c3ccc(Cl)cc3)C=C2c2ccccc2)cc1 | 36.3 |
